# Assay results from different studies.
# A part holds a random share of what one study measured. Substitutions count along the parent as printed.

# Sample 1 — method: DHFR PCA, deep sequencing; sample: yeast; added: (+)-ABA 0 µM; reference: wild-type fitted maximum; direction: higher = stronger binding
# Target: ABI1, truncated, D143A, DHFR fusion (Arabidopsis thaliana)
# Setting: methotrexate growth selection, single substitutions
# Parent: PYL1, truncated, DHFR fusion (Arabidopsis thaliana); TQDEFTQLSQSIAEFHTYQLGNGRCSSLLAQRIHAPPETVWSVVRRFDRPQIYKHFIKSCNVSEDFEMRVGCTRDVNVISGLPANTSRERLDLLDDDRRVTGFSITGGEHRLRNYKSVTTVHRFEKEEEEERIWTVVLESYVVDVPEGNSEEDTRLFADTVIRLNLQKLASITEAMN
Change,relative binding score [%]
Q19M,9.95
I57H,-0.748
L28V,48.1
R99W,62.6
I105M,5.96
P146N,-3.91
D97P,-4.32

# Sample 2 — target: CCNA1, cyclin fold, Cln2 fusion (human); method: yeast growth competition, sequencing; sample: yeast; setting: weak parent motif; reference: not given; direction: higher = stronger binding
# Parent: CDKN1A docking peptide (human); SKACRRLFGPVDS; partner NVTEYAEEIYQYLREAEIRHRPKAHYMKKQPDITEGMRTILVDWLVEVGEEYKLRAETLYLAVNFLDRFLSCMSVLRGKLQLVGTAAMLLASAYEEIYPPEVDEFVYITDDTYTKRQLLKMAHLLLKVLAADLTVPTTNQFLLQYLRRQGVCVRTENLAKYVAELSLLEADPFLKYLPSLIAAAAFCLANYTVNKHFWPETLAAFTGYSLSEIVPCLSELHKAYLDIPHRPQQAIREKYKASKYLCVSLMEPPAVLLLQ
Change,normalised enrichment score
V11D,1.56
R6V,0.19
A3M,0.367
G9D,0.556
C4T,0.524
G9M,0.715
P10E,0.66
R5Q,-0.163
K2Y,0.573
P10N,0.6
V11P,0.279
A3P,0.468
A3V,0.515
K2M,0.865
S1A,0.566
G9N,0.551

# Sample 3 — method: universal PBM; molecule type: double-stranded DNA, one strand shown; sample: in vitro; concentration: 600 nM; direction: higher = stronger binding
# Target: Sal-like protein 4, full length isoform A (SALL4, Homo sapiens, UniProt Q9UJQ4, residues 1-1053)
# Sequence of UniProt Q9UJQ4 (whole entry, looked up): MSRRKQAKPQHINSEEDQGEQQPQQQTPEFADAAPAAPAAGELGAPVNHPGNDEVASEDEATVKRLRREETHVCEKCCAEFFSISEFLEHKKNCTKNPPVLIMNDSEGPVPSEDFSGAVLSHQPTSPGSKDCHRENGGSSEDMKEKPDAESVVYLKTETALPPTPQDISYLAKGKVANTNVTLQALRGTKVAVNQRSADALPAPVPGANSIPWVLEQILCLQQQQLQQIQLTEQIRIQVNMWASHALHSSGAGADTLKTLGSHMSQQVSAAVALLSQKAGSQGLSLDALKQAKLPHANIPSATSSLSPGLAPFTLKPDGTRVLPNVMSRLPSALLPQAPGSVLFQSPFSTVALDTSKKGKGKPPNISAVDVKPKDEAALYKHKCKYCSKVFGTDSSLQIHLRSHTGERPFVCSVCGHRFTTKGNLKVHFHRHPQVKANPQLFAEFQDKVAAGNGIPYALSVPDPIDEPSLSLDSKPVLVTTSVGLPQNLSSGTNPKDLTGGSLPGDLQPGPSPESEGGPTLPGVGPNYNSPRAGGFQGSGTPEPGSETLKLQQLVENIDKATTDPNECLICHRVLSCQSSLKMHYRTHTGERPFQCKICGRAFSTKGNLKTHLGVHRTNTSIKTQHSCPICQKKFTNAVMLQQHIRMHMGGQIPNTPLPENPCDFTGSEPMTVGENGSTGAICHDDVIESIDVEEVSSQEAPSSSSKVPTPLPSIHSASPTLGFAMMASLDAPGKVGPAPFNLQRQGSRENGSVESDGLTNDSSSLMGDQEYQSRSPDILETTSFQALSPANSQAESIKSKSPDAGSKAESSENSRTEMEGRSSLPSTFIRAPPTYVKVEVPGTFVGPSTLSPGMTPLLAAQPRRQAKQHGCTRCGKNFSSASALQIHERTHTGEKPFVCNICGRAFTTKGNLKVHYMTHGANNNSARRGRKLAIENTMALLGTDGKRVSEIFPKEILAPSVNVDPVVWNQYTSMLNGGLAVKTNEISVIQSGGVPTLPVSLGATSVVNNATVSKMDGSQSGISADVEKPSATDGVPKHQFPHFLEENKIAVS
# Setting: 8-mer, flanks averaged, mean of replicates
Strand,E-score
AGTTACCC,-0.0719
AAGCAGCA,-0.124
GAATTGTC,0.0187
GGGAAGTA,0.0679
CCAGTACG,-0.0779
CACTGTAC,-0.135
GCTGTGGA,-0.0615
AACGCCTA,-0.0478
GCGTCGAC,-0.194
AGTATAGC,0.0958
ACCGCACG,-0.143

# Single results of other studies
Molecule,target,test,system,conditions,how to read,endpoint,value
"PhoQ, residues 284 288 289 292 302 303 SCKMEA","PhoP, residues 12 14 15 18 19 GHCSL (Escherichia coli, UniProt P23836)","Sort-seq, measured: YFP reporter",E. coli,"PhoQ-PhoP variant library, added: 10 µM Mg2+","reference: high Mg2+ state, higher = stronger signaling",fold induction,2.3
